Assay results collected from several papers.
Numbered parts are unrelated; each lists some results of a single study.

Sample 1
Target: RNA binding protein fox-1 homolog 2, RRM domain, GST-SBP tag (RBFOX2, Homo sapiens, UniProt O43251-10, residues 100-194)
Method: RNA Bind-n-Seq
Molecule type: RNA
Matrix: in vitro
Tested at: 365 nM
Setting: natural RNA segment, single round, ends assumed
Reference: no-protein control
Direction: higher = stronger binding
Construct (chain): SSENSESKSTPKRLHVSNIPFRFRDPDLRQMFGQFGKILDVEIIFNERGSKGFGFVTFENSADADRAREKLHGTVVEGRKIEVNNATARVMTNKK
Under “RBNS enrichment (R)”, `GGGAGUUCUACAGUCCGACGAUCAGUAUAAGUGAUUCUAUCUUGGUCCCACCAAGAGUUUGCCCGAUCUCCACACAUCACCUGUUGUCUCACAAAAAGUAGGGGAACCUUGUCAGUCACAUAGGACAGGAUAUUGGAAUUCUCGGGUGCCAA` is recorded as 0.328.
`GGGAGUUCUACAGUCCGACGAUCGAGCAGCAGAGCAGCAGGACAUGGCCAACAAAGCGUGCUUUCUGAGGACGUGGAGAGUGGCAGUGACGAAGGUCAUUUGUUUUCAGGGAGGUAGGGUUUAAAGACCCCCAUGGAAUUCUCGGGUGCCAA` — result for “RBNS enrichment (R)”: 0.311.
Under “RBNS enrichment (R)”, `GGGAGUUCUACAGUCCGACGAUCGCUUAUUCUUGACAUGAGUGCAUUAGUAAUGACUCUUAUGUACUCAUGCAUGGAUCUUUAUGCAAUUUUUUUCCACUACCCAAGGUCUACCUUAGAUACUAGUUGUCUGAUGGAAUUCUCGGGUGCCAA` is recorded as 0.308.
`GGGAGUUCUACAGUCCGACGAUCAUUGUCCUCACUGCCGUGGACACGUGGACACGUCCCACCUGAACCCCCUGCCGGACCAGGAGGCUCCCACAGACACGGCCUUCCACAGAGCGCGGUACAGCUGGGCCCAGUGGAAUUCUCGGGUGCCAA` — result for “RBNS enrichment (R)”: 0.265.
For `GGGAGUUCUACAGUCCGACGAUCCCUCCAGGGGGGACUCCUCCCCACUCCCUCAGCCCUGGGGCCCCCCUAUCCUAAGACUCGGAAAGGCCCACCCUGAGGUUCUAUUGCCUUCCUGGUGGUAUCAGCUUCCAUGGAAUUCUCGGGUGCCAA`, “RBNS enrichment (R)” read 0.466.
`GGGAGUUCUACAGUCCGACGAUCCGCGGCAGCUGCACGCGCUCACAGAAGGUGGAGGUUACUUGCCCAGGUACAGACGACCUCGGGGCAGUGACGAGCAAAGACCAGAGACUGCUGAGCCCUCGCAUCUGGGUUGGAAUUCUCGGGUGCCAA` — result for “RBNS enrichment (R)”: 1.23.
For `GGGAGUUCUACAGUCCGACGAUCAUAAUGACAUUCUGUCACCCACCCUUUUGUACAUUUUUCACUUUUUGUUUGUUUCAUCUUUUUCAGUUGAAUAUUAAUACUAAUGGCCACGUCUGACAAAUGUGUGUAUGUGGAAUUCUCGGGUGCCAA`, “RBNS enrichment (R)” read 0.588.
Under “RBNS enrichment (R)”, `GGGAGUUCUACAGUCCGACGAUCAAAGCCAGAGUGCAAGUCAUGAUUUGCGGGAGGGCUCUUGAACCACUUCUGGCUGCACCACAAUUCUGUACUUGAGUAUCACAGUCAUUGUUUUUGAGACAAACAUUUUUUGGAAUUCUCGGGUGCCAA` is recorded as 0.556.
Under “RBNS enrichment (R)”, `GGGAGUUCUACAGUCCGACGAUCCCUCAUUCUGGUUUAUUUAUUAUGAACUUCCAAGUUAUUUAAAUGAAGAUUUCCUUCUGCAGUAUUUUCUUGAGAUAACAUAUUUGCUUUCCACCAUGUCCUGGGGGCCUUGGAAUUCUCGGGUGCCAA` is recorded as 0.732.
Under “RBNS enrichment (R)”, `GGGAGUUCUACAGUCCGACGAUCAUCCCCAGAGUUCCGUUAGUAAACUUACUUCAUAUGUCCCCUGUCUUCCUCCAUCUGAGAAGUGGCCCAUGUGCUUCAAGGCCCAGGAGGGAGAUCUGUCAGCUCAUUCUUGGAAUUCUCGGGUGCCAA` is recorded as 0.342.

Sample 2
Target: Interferon regulatory factor 5, full length, phosphomimetic (IRF5, Homo sapiens, UniProt Q13568-2, residues 1-514, S451D/S453D/S456D/S462D)
Method: protein-binding microarray
Molecule type: double-stranded DNA, one strand shown
Matrix: in vitro
Tested at: 940 nM top
Setting: 60-bp whole probe
With: salmon DNA 0.4 mg/ml
Reference: random background probes
Direction: higher = stronger binding
Shared flanks, not repeated: GCCTAGCAC … GTCTTGATTCGCTTGACGCTGCTG
For `AAGTTTCTCCTTTCCAAATAGTGCTAG`, “fitted relative affinity” read 4.98 z-score.
`GCCGGACTGCTTCTCCTGACGTGCTAG` — result for “fitted relative affinity”: -0.174 z-score.
For `GACCGTTCCGGTTTCGGGACGTGCTAG`, “fitted relative affinity” read 5.56 z-score.
`TTAGGACTTGGGTATCGGTTAGTGCTA` — result for “fitted relative affinity”: 3.12 z-score.
`GACCATTCCAGTTTCGAGACGTGCTAG`: “fitted relative affinity” 4.65 z-score.
`TCAAATGTCCTTTCTCCAACTGTGCTA`: “fitted relative affinity” 0.738 z-score.

Sample 3
Target: Sal-like protein 4, full length isoform B (SALL4, Homo sapiens, UniProt Q9UJQ4-2, residues 1-616)
Method: universal PBM
Molecule type: double-stranded DNA, one strand shown
Matrix: in vitro
Tested at: not given
Setting: 8-mer, flanks averaged, mean of replicates
Direction: higher = stronger binding
Target sequence (chain): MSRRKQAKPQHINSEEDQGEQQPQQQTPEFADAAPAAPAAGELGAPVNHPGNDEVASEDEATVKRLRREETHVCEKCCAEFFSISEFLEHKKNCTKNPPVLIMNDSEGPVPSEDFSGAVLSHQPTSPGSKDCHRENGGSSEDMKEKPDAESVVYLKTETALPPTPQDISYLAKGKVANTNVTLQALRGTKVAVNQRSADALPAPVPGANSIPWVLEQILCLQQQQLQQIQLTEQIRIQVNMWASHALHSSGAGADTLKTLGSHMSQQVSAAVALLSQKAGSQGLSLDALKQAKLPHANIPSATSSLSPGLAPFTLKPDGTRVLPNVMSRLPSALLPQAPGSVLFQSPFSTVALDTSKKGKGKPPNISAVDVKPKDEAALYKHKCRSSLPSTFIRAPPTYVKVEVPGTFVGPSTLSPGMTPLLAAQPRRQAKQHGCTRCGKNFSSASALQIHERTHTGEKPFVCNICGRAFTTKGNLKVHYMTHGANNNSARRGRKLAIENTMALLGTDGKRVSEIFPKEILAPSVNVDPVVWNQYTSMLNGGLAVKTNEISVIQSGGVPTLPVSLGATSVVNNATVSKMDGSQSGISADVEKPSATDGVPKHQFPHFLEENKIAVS
With `TGTCGAAA` the E-score was 0.153.
With `CGGTTCAC` the E-score was -0.263.
The E-score of `GGACGTTA` is reported as 0.0322.
With `GGGTTTAC` the E-score was -0.0531.
With `GCTCGCAC` the E-score was -0.255.
With `ATCTTGCC` the E-score was -0.0614.
For `AACTTTTA`, the E-score was 0.24.
`GGTGCAAA` has an E-score of -0.0426.
`GAAAAGGA` has an E-score of 0.00039.
For `AGACCCAT`, the E-score was -0.0849.
`GGGCCCGA` gave an E-score of -0.196.

Further values, each from its own experiment
The fold induction of `PhoQ, residues 284 288 289 292 302 303 SLANIV` is reported as 3.14 (PhoP, residues 12 14 15 18 19 QWHVF (Escherichia coli, UniProt P23836); Sort-seq, refers to: YFP reporter; E. coli; PhoQ-PhoP variant library, with: 10 µM Mg2+; reference: high Mg2+ state, higher = stronger signaling).

A few entries again (sample 1):
Under “RBNS enrichment (R)”, `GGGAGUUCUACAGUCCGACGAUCCCUCAUUCUGGUUUAUUUAUUAUGAACUUCCAAGUUAUUUAAAUGAAGAUUUCCUUCUGCAGUAUUUUCUUGAGAUAACAUAUUUGCUUUCCACCAUGUCCUGGGGGCCUUGGAAUUCUCGGGUGCCAA` is recorded as 0.732.
`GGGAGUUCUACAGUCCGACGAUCGAGCAGCAGAGCAGCAGGACAUGGCCAACAAAGCGUGCUUUCUGAGGACGUGGAGAGUGGCAGUGACGAAGGUCAUUUGUUUUCAGGGAGGUAGGGUUUAAAGACCCCCAUGGAAUUCUCGGGUGCCAA` — result for “RBNS enrichment (R)”: 0.311.
